Measurements gathered from unrelated publications.
Protocols differ between the studies behind these lines.
Cell line: MCF7

| SMILES | test | setting | inhibition [%] |
| --- | --- | --- | --- |
| COc1ccc(OCC(=O)c2ccc(O)c(C)c2O)cc1 | cell growth or viability, MTT | 100 µM, 48 h | 6.72 |
| CCC(=C(c1ccc(Cl)cc1)c1ccc(OCCN(C)C)cc1)c1ccc(Cl)cc1 | cell growth or viability | 10 µM | 79.5 |
| CC(C)(C)c1cc2c(O)c(c1)Cc1cc(C(C)(C)C)cc(c1OCC(=O)NCc1cccnc1)Cc1cc(C(C)(C)C)cc(c1O)Cc1cc(C(C)(C)C)cc(c1OCC(=O)NCc1cccnc1)COC2 | cell growth or viability, MTT | 15 µM, 72 h | 95 |
| Cn1c(=O)c(C(=O)N/N=C/c2ccccc2/C=N/NC(=O)c2nc3ccccc3n(C)c2=O)nc2ccccc21 | cell growth or viability, MTT | 10 µM | 46.5 |
| CC(C)(C)c1cc2c(O)c(c1)Cc1cc(C(C)(C)C)cc(c1OCC(=O)Nc1cccc3cccnc13)Cc1cc(C(C)(C)C)cc(c1O)Cc1cc(C(C)(C)C)cc(c1OCC(=O)Nc1cccc3cccnc13)COC2 | cell growth or viability, MTT | 15 µM, 72 h | 24 |
| O=C(COc1ccccc1/C=N/Nc1nc(-c2ccc(Cl)cc2)cs1)N1CCN(C(=O)COc2ccccc2/C=N/Nc2nc(-c3ccc(Cl)cc3)cs2)CC1 | cell growth or viability, SRB | 100 µM, 48 h | 76 |
| C/C(=N\N=C1/NC(=O)CS1)c1ccccn1 | cell growth or viability, SRB | 100 µg/mL, 48 h | 65.4 |
| COc1ccc(C2=Nn3c(NN=C4C(=O)N(C)c5ccc(Br)cc54)nnc3SC2)cc1 | cell growth or viability, SRB | 10 µM | 30 |
| CC(=C(c1ccc(Cl)cc1)c1ccc(OCCN(C)C)cc1)c1ccc(Cl)cc1 | cell growth or viability | 10 µM | 6.63 |
| COc1cc(/C=C/C(=O)/C=C(O)/C=C/c2ccc(OCC(=O)N3CCOCCOCCOCCOCC3)c(OC)c2)ccc1OCC(=O)N1CCOCCOCCOCCOCC1 | cell growth or viability, SRB | 5 µM | 4.69 |
| COc1ccc(CC(C)=C(c2ccc(Cl)cc2)c2ccc(OCCN3CCCC3)cc2)cc1 | cell growth or viability | 10 µM | 64.3 |
| CCNC(=S)N/N=C(\C)c1ccccn1 | cell growth or viability, SRB | 100 µg/mL, 48 h | 69.8 |
| COc1ccc2cc3[n+](cc2c1OCc1cn(Cc2ccc(C(C)(C)C)cc2)nn1)CCc1cc2c(cc1-3)OCO2.[Cl-] | cell growth, MTT | 7.8 µM | > 50 |
| CC(=O)OCC1=CCC2[C@]3(C)COC(c4ccccc4)O[C@@H]3CC[C@@]2(C)[C@@H]1/C=C/C1=CCOC1=O (stereo partly drawn) | cell growth or viability, MTT | 20 µM, 48 h | 2.87 |
| COc1cc(Cc2c[nH]c3ncc(C(F)(F)F)cc23)cc(OC)c1 | cell growth or viability | 10 µM, 72 h | 33 |
| C=C/C(=C/C(=O)C[C@H](C)C[C@@H](C)CC[C@H](O)[C@H](C)C(=O)/C=C/[C@H](C)[C@@H](C)O)CC | cell growth or viability, MTT | 20 µM, 48 h | 70 |
| O=C(COc1ccc(/C=N/Nc2nc(-c3ccc(Cl)cc3)cs2)cc1)N1CCN(C(=O)COc2ccc(/C=N/Nc3nc(-c4ccc(Cl)cc4)cs3)cc2)CC1 | cell growth or viability, SRB | 100 µM, 48 h | 82.4 |
| CCC(=C(c1ccc(Cl)cc1)c1ccc(OCCCN(C)C)cc1)c1ccc(OC)cc1 | cell growth or viability | 10 µM | 90.9 |
| OC(c1ccc(Cl)c(C(F)(F)F)c1)c1c[nH]c2ncc(C(F)(F)F)cc12 (stereo not drawn) | cell growth or viability | 10 µM, 72 h | 30 |
| CCN1C(=O)/C(=C\c2ccc(O)cc2)SC1=S | cell growth or viability, MTT | 100 µM, 48 h | 25.3 |

| SMILES | test | setting | inhibition [%] |
| --- | --- | --- | --- |
| COc1cccc(Cc2c[nH]c3ncc(C(F)(F)F)cc23)c1 | cell growth or viability | 10 µM, 72 h | 32 |
| CCC(=C(c1ccc(Cl)cc1)c1ccc(OCCN(C)C)cc1)c1ccc(OC)cc1 | cell growth or viability | 10 µM | 3.34 |
| COc1cccc(C(O)c2c[nH]c3ncc(C(F)(F)F)cc23)c1 (stereo not drawn) | cell growth or viability | 10 µM, 72 h | 33 |
| CCN(CC)CCOc1ccc(C(=C(C)c2ccc(Cl)cc2)c2ccc(Cl)cc2)cc1 | cell growth or viability | 10 µM | 65.2 |
| O=C(CCCCCCNCc1ccc(-c2ccccc2)s1)NO | – | 10 µM | 63 |
| C[C@]1(CO)C2CC[C@@]3(CO3)[C@@H](/C=C/C3=CCOC3=O)[C@]2(C)CC[C@H]1O (stereo partly drawn) | cell growth or viability, MTT | 20 µM, 48 h | 15.2 |
| OCc1ccc(-c2cc(C(F)(F)F)cc(C(F)(F)F)c2)o1 | cell growth or viability, MTT | 100 µM, 48 h | 4.3 |
| CC(C)(C)c1cc2c(O)c(c1)Cc1cc(C(C)(C)C)cc(c1OCC(=O)Nc1cncc3ccccc13)Cc1cc(C(C)(C)C)cc(c1O)Cc1cc(C(C)(C)C)cc(c1OCC(=O)Nc1cncc3ccccc13)COC2 | cell growth or viability, MTT | 15 µM, 72 h | 94 |
| Cc1nc2ccc(Cc3c[nH]c4ncc(C(F)(F)F)cc34)cc2o1 | cell growth or viability | 10 µM, 72 h | 22 |
| CCC(=C(c1ccc(Cl)cc1)c1ccc(OCCN(CC)CC)cc1)c1ccc(OC)cc1 | cell growth or viability | 10 µM | 86.3 |
| Cc1cccc(NCC(=O)Nc2nc3ccccc3s2)c1 | cell growth or viability, MTT | 100 µM, 72 h | -6.5 |
| CCC(=C(c1ccc(Cl)cc1)c1ccc(OCCN(CC)CC)cc1)c1ccc(Cl)cc1 | cell growth or viability | 10 µM | 75.8 |
| OC(c1cccc(C(F)(F)F)c1)c1c[nH]c2ncc(C(F)(F)F)cc12 (stereo not drawn) | cell growth or viability | 10 µM, 72 h | 33 |
| CC1(CO)C(O)CCC2(C)C(C=CC3=CCOC3=O)C(CO)=CCC12 (stereo not drawn) | cell growth or viability, MTT | 20 µM, 48 h | 4.03 |
| CC(C)(C)c1cc2c(O)c(c1)Cc1cc(C(C)(C)C)cc(c1OCC(=O)NCc1ccncc1)Cc1cc(C(C)(C)C)cc(c1O)Cc1cc(C(C)(C)C)cc(c1OCC(=O)NCc1ccncc1)COC2 | cell growth or viability, MTT | 15 µM, 72 h | 96 |
| OC(c1cc(F)ccc1F)c1c[nH]c2ncc(C(F)(F)F)cc12 (stereo not drawn) | cell growth or viability | 10 µM, 72 h | 32 |
| Nc1ccc(Oc2c(F)c(F)c(Oc3ccc(N)cc3)c(F)c2F)cc1 | cell growth or viability, MTT | 100 µM, 48 h | 16.9 |
| FC(F)(F)Oc1cccc(Cc2c[nH]c3ncc(C(F)(F)F)cc23)c1 | cell growth or viability | 10 µM, 72 h | 27 |
| CC(C)(C)c1cc2c(O)c(c1)Cc1cc(C(C)(C)C)cc(c1OCC(=O)NCc1ccccn1)Cc1cc(C(C)(C)C)cc(c1O)Cc1cc(C(C)(C)C)cc(c1OCC(=O)NCc1ccccn1)COC2 | cell growth or viability, MTT | 15 µM, 72 h | 67 |

For quick reference, copied from above:
| SMILES | test | setting | inhibition [%] |
| --- | --- | --- | --- |
| COc1ccc(C2=Nn3c(NN=C4C(=O)N(C)c5ccc(Br)cc54)nnc3SC2)cc1 | cell growth or viability, SRB | 10 µM | 30 |
| CCN1C(=O)/C(=C\c2ccc(O)cc2)SC1=S | cell growth or viability, MTT | 100 µM, 48 h | 25.3 |
| O=C(COc1ccccc1/C=N/Nc1nc(-c2ccc(Cl)cc2)cs1)N1CCN(C(=O)COc2ccccc2/C=N/Nc2nc(-c3ccc(Cl)cc3)cs2)CC1 | cell growth or viability, SRB | 100 µM, 48 h | 76 |
| CCC(=C(c1ccc(Cl)cc1)c1ccc(OCCN(C)C)cc1)c1ccc(Cl)cc1 | cell growth or viability | 10 µM | 79.5 |
| COc1ccc2cc3[n+](cc2c1OCc1cn(Cc2ccc(C(C)(C)C)cc2)nn1)CCc1cc2c(cc1-3)OCO2.[Cl-] | cell growth, MTT | 7.8 µM | > 50 |
| CCN(CC)CCOc1ccc(C(=C(C)c2ccc(Cl)cc2)c2ccc(Cl)cc2)cc1 | cell growth or viability | 10 µM | 65.2 |
